Measured values collected from several papers.
Each numbered part is a random draw from the data of one study; scales do not carry over between parts. Changes are numbered by the printed parent chain.

Study 1
Effect on: peptide binding
Molecule type: peptide
Sample: yeast competitive growth
Together with: B2-Cln2 chimera
Reading: direction not given
Measurement: enrichment score
ALLRRLQDVANDRGSH: -0.897
VLLKRLQDVVSERANH: -0.951
SDSTVTKLDFDLEP: 1.39
RVSGLLSWTLSRVLWL: -0.946
TSSAQRRLEIPSGGAD: -0.65
LAKRALKYTD: -0.252
CFRCLLFSFSGRSGVE: -1.55
QDYERRLLRQIVIQNE: -0.226
IQKKLRFEDTLEFVGF: -0.121
RSLKLDGLLEEN: -0.157
LKGRRLVFDN: 0.203
EPKTLFLGAGDFQF: 1.15

Study 2
Target: RING finger protein unkempt homolog, zinc fingers 1-6, GST-SBP tag (UNK, Homo sapiens, UniProt Q9C0B0, residues 30-357)
Method: RNA Bind-n-Seq
Molecule type: RNA
Sample: in vitro
Tested at: not given
Setting: RNA with constant flanks, ends assumed
Baseline: input RNA pool
Reading: higher = stronger binding
Measurement: bound/input enrichment
Shared flanks, not repeated: GGGAGUUCUACAGUCCGACGAUC … CAACAGAGGAUUGAGCAUCA
Residues (chain): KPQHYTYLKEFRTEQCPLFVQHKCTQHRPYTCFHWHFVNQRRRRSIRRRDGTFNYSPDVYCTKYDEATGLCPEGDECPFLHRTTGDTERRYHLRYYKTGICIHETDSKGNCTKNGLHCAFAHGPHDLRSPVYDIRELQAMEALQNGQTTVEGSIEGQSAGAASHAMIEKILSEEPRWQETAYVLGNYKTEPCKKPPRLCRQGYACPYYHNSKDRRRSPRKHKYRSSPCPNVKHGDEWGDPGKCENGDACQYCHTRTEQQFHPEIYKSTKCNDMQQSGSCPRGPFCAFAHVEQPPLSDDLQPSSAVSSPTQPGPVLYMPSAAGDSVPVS
GAUAUUUUGGGUGUUAAAAAGGAAAUGAUCCGACUAGAUGAAGUCCCCAAUCUGAGUUCCUCCGUAUCCAAUUUCGAUCAGCAGCAGCUCGCUAAUUUCUGCCGGAUUCUGGCUGUCACC: 0.179 ratio
GUGUGCAAAAGCAAGAAGUCCUGGCAAGCGAGACACACUGGUAUUAAGAUUGUACAACAGACCGCUAUUCUUAUGGGCUGUGCCAUCUUGCCACAUCUUAGAAGUUUAGUUGAAAUCAUU: 1.06 ratio
CGGAGGCGCUACCCUCAGAUCUAUGCCAGCAGCCACAAGCUGCAGCUGGAUGUCACCUCAACCGUGCUCAGCGCCCACGACUUCUACCAUGCCAUGCAGAACAUCGUGCCUGCUUCCCAA: 0.0474 ratio
GCAGUUAUAUGUGGAAACACUGGUAAUUCUUUCCACAGUGUUGUUUUGGAUAAUCUGUUCCCGUAUAUUUAACUAAUUGUAUGGUGGACCUGUACUCUGAUACACAUCGAAUCAGUCAAU: 0.466 ratio
GACGCUAGCGAUGGGACCGUGCGACUUCGUGGACUGCCAUUUGGUUGCAGCAAAGAGGAAACCGUUCAGUUCUUUCAAGGUAUAUUGAGAUCUUCAGGAGUAGCAGGAGUGAAAUCAAAG: 0.284 ratio
GUCCUUAUUGAUCCUUUUUCUUGGCGUUACCAUUUUUGAAGCAAAGUUAACCUAGCUUUCCCGCUUGAGCUUUCUUUUUGGCCAUCUUUUAAAACUUUUUUUUUUUUUUUUGAUCUAUAA: 2.63 ratio
GUGACCAAUUUGUUGCAGUUACCUCAGUACUUUGAUUUGGAGAUAUACACCACUGGACGAUCCGAAAAGCAUUUGGAUGCCUUAUUGCGCCAGAUCCGAAAUAUUGUAGAGAAGCACACA: 0.262 ratio
GAUCAGAAUGGAAUGACCCCUUUAAUGUGGGCAGCUUAUAGAACACAUAGUGUGGAUCCAACCCGAUUGCUUUUAACAUUCAAUGUUUCAGUUAACCUUGGUGACAAGUAUCACAAAAAC: 0.31 ratio
GCGCCCCCCGGGCGCCCCGAUGUUUUUCCUCCUCCCCUCAGCUCUGAGCAUAAUGGGCAGGCCGCUGAGGACGCAGUGUCCCGGCCAAAGGAUGACGGCGUACCAGAGGUCCGAGCUGCU: 0.106 ratio
UAUGAUCAAGUUCUCGUGGAGUCAGACAAUGAGAACCGAAUGGAGGAAAGCAAGGCUCUCUUCCGAACAAUUAUCACAUACCCCUGGUUCCAGAACUCCUCGGUUAUUCUGUUCUUAAAC: 0.23 ratio
UUUGGACAUCGGUUACAGGAAAACUUUUCCUUAGAUCUUCUCAAAACUGCAUUUGUUAACCGCUGCUAUAUUAAAAGUGAGGAGGCCAAACGCCAACAACUUGGGAUAGAGAAAGAAGCU: 0.491 ratio

Study 3
Target: Histone acetyltransferase KAT6A, winged helix 1, GST fusion (KAT6A, Homo sapiens, UniProt Q92794, residues 1-85)
Method: protein binding microarray
Molecule type: double-stranded DNA, one strand shown
Sample: in vitro
Tested at: not given
Setting: 8-mer, flanks averaged, mean of 2 arrays, mostly near background
Baseline: not given
Reading: higher = stronger binding
Measurement: E-score
Construct (chain): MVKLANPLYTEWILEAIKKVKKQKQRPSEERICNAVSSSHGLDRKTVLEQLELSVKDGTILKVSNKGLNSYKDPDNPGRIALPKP
AACGGACG: 0.241
CAACTGCA: -0.313
AGGAACCA: -0.17
ATTATTGA: -0.239
GGTGGAGA: -0.073
GTATCAGA: -0.0265
GTGATAAC: -0.0878
AGCTCTGC: -0.187
ATTATCCA: -0.133
GAACGTCC: -0.0435
GGGCCAAC: 0.0522
GACGATAA: -0.0223
ATTTGCAG: -0.276
GTTCATCA: -0.167
CCATATCC: 0.0131
ACAGAACG: -0.0195
AACTACTA: -0.0456
CACGTTTC: -0.129
AGAATTCG: -0.149
AAGCAACC: 0.0112
TAGGTAAA: -0.169
CCTAGCCC: -0.0813
AATAGGTG: -0.224
GTGGTGCA: -0.14
CGAGACGC: 0.153

Study 4
Target: ABI1, truncated, D143A, DHFR fusion (Arabidopsis thaliana)
Method: DHFR PCA, deep sequencing
Sample: yeast
Setting: methotrexate growth selection, single substitutions
Together with: (+)-ABA 710 µM
Baseline: wild-type fitted maximum
Reading: higher = stronger binding
Measurement: relative binding score
Starting sequence: PYL1, truncated, DHFR fusion (Arabidopsis thaliana); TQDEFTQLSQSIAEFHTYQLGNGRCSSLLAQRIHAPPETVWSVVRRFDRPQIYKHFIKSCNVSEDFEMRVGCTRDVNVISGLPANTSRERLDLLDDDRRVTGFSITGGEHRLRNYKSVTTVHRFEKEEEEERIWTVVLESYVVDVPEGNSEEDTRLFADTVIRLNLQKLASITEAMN; partner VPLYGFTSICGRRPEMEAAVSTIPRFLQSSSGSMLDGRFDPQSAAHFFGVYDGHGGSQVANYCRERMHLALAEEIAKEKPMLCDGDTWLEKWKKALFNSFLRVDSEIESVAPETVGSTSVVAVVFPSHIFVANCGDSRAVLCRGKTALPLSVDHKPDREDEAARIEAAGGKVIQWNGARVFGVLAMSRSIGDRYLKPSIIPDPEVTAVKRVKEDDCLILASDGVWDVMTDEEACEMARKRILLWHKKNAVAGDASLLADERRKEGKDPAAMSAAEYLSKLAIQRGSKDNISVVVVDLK
V145F: 64.7%
G102Q: 89%
A35N: 46.2%
R74M: -1.94%
E139L: 91.9%
T135H: 1.43%
S150F: 80%
S104C: 84.9%
N77R: 105%
E128R: 105%
E152M: 99.1%
E109I: 99%
Q2A: 108%
N61I: 100%

Study 5
Target: Interferon regulatory factor 5, full length, phosphomimetic (IRF5, Homo sapiens, UniProt Q13568-2, residues 1-514, S451D/S453D/S456D/S462D)
Method: protein-binding microarray
Molecule type: double-stranded DNA, one strand shown
Sample: in vitro
Tested at: 940 nM top
Setting: 60-bp whole probe
Together with: salmon DNA 0.4 mg/ml
Baseline: random background probes
Reading: higher = stronger binding
Measurement: fitted relative affinity
Shared flanks, not repeated: GCCTAGCAC … GTCTTGATTCGCTTGACGCTGCTG
TATTGTCTCCCCCATCTTGTTGTGCTA: 1.12 z-score
GACGGTCGCCTTTTCCTGACGTGCTAG: 0.244 z-score
TTAGATTTCGGGTTTCGGTTAGTGCTA: 7.07 z-score
TTAGGACTGGGGTTTCGGTTAGTGCTA: 5.51 z-score
AAATGATTGGTTGAACATGAGTGCTAG: -0.191 z-score
GACGATTTCATTTTCGAGACGTGCTAG: 1.78 z-score
TTTCCTCTGTCATTTTCTCTGTGCTAG: 2.21 z-score
TCAGGTTTCGGACTGGGTTAGTGCTAG: 6.34 z-score
GACGGACTGCTTCTGCTGACGTGCTAG: -0.618 z-score
GACGGTATAGGGTATCGGGACGTGCTA: 0.55 z-score
TCATTTCTACTTCTGTTACTGTGCTAG: 1.37 z-score
GACGATCTCAGACTGGATACGTGCTAG: -0.064 z-score
GACGGCCTGGGTCTCGGGACGTGCTAG: -0.165 z-score
TTAGGACTGGACTTACGGTTAGTGCTA: -0.413 z-score
GACGGTATCGGTTTCGCGACGTGCTAG: 9.13 z-score
GACGCTCTCGGTATCGGGACGTGCTAG: 4.8 z-score
TTAGGACTGCTTAACCTTTAGTGCTAG: -0.205 z-score
TCACTTCTAATATTCATACTGTGCTAG: 1.2 z-score
CTACACATCTCACTCTAATCGTGCTAG: 1.42 z-score
AAACAAGTTTCACGTCTTATAGTGCTA: 1.84 z-score
TTGGGTATCGGGACTGGGTTAGTGCTA: 3.3 z-score
TTAGATATCAATTTCGATTAGTGCTAG: 1.41 z-score
TTAGGTATCCTACTGCTGTAGTGCTAG: 0.011 z-score
TTAGGAATGGACTATCGGTTAGTGCTA: -0.161 z-score
ATTTTTTTGTAATCGAAATCTGTGCTA: 0.0128 z-score
